# Measured values collected from several papers.
# Numbers after ± are the reported error.
# GSK3B: Glycogen synthase kinase-3 beta (GSK3B, Homo sapiens, UniProt P49841)
# UniProt P49841, sequence (whole entry, looked up): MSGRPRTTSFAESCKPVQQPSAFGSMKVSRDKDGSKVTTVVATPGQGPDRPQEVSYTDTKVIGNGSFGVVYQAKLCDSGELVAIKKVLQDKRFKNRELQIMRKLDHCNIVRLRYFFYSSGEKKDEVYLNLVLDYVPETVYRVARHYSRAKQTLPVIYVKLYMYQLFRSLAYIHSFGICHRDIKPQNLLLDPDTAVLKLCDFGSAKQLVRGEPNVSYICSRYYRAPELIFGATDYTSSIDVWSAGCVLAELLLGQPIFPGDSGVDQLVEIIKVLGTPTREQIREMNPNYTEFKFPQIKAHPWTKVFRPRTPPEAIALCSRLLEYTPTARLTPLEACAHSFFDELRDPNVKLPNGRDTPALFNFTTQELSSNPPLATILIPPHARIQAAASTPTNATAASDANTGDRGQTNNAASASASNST
# ALDH2: Aldehyde dehydrogenase, mitochondrial (ALDH2, Homo sapiens, UniProt P05091)
# UniProt P05091, sequence (whole entry, looked up): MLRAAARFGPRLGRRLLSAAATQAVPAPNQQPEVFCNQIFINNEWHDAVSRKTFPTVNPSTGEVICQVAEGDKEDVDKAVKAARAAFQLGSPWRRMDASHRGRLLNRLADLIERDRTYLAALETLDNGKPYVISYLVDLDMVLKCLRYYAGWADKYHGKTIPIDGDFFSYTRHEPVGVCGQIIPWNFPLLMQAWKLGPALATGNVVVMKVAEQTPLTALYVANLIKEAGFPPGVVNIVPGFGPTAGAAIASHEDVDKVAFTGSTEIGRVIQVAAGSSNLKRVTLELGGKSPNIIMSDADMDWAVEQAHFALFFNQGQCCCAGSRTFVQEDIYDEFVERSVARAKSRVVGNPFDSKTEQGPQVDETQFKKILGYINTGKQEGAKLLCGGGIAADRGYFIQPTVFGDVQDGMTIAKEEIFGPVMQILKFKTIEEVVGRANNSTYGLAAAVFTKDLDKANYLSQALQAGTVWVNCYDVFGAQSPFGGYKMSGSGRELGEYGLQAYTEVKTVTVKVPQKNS
# 7-alpha-hydroxycholest-4-en-3-one 12-alpha-hydroxylase: 7-alpha-hydroxycholest-4-en-3-one 12-alpha-hydroxylase (Homo sapiens, UniProt Q9UNU6)
# UniProt Q9UNU6, sequence (whole entry, looked up): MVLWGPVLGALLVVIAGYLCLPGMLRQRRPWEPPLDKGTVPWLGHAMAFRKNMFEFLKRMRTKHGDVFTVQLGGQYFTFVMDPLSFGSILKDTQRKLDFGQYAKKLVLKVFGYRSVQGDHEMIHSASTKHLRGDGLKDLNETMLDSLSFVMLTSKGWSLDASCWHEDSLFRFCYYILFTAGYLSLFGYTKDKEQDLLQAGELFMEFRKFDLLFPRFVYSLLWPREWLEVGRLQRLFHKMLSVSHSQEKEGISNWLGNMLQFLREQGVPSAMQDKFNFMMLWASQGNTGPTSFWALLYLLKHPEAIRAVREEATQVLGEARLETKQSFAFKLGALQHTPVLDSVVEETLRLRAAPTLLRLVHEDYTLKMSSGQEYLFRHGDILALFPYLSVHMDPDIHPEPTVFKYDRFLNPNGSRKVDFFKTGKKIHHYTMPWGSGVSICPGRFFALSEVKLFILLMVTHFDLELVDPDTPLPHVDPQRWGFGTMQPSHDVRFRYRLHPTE
# Histone acetyltransferase RTT109 with Vps75: Histone acetyltransferase RTT109, with Vps75 (Saccharomyces cerevisiae, UniProt Q07794)
# UniProt Q07794, sequence (whole entry, looked up): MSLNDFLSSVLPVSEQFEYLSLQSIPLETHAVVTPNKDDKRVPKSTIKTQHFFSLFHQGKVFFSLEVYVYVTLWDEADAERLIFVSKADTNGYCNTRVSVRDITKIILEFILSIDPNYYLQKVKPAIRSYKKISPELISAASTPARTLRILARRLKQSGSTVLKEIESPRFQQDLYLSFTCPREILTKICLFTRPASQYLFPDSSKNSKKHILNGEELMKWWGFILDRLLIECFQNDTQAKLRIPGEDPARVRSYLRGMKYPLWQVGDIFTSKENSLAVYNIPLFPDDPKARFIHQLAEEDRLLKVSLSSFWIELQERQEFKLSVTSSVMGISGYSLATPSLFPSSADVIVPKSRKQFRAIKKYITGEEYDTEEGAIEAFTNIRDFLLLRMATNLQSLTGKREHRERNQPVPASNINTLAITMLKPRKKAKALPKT
# UniProt P31641, sequence (whole entry, unmodified, looked up): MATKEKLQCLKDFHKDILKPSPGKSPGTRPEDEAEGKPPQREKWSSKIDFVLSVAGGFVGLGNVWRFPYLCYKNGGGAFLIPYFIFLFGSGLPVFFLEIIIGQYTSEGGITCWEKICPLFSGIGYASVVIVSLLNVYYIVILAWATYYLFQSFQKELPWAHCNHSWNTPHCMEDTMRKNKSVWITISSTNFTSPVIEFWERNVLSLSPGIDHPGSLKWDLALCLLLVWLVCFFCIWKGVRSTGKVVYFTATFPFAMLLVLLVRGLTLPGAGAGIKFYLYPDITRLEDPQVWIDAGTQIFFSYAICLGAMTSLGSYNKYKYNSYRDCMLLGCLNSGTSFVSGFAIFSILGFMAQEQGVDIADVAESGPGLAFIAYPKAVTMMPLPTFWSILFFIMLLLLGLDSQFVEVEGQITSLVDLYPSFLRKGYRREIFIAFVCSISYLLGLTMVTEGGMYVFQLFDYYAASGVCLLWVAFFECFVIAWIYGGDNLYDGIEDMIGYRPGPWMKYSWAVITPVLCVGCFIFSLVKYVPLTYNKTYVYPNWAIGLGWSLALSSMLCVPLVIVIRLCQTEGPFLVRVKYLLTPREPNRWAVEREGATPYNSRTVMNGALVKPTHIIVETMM
# UniProt P98095, sequence (whole entry, looked up): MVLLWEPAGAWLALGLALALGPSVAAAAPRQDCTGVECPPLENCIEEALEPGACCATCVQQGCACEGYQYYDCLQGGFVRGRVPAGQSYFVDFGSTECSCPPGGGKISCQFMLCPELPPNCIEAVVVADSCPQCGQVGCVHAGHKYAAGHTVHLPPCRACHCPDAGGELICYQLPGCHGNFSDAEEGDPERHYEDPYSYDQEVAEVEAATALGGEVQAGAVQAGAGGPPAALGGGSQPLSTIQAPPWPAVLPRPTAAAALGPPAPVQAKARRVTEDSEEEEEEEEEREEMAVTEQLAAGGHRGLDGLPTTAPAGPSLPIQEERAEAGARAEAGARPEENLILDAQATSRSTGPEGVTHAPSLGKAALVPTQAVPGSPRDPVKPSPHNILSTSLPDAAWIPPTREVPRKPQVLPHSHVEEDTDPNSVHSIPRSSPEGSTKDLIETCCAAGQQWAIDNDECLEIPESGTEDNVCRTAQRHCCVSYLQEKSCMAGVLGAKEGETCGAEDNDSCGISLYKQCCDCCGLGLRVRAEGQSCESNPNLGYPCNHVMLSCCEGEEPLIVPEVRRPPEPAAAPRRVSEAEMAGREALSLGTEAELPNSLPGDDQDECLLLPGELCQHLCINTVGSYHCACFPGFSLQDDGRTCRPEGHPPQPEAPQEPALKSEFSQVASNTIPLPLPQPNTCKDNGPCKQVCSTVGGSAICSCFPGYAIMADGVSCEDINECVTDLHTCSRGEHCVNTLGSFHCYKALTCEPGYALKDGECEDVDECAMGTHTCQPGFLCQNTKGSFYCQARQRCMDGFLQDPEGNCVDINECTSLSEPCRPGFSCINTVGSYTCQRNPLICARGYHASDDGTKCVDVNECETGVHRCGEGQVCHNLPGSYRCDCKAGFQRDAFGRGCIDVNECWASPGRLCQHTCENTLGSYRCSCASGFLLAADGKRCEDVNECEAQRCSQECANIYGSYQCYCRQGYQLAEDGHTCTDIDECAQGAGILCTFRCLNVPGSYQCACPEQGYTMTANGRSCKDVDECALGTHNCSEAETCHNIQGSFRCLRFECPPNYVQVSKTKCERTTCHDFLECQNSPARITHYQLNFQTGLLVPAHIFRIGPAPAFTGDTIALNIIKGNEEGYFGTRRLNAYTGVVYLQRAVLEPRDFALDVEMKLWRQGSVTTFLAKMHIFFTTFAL
# UniProt Q4WW81, sequence (whole entry, looked up): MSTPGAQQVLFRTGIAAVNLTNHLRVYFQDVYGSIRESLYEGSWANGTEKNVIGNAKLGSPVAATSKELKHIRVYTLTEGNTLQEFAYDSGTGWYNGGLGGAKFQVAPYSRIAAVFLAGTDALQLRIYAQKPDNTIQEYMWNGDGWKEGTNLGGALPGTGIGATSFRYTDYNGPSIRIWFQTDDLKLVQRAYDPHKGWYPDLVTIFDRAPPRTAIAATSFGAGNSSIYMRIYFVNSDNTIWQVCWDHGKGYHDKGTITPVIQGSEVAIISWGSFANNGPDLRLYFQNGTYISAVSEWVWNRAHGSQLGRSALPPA
# UniProt P07948, sequence (whole entry, looked up): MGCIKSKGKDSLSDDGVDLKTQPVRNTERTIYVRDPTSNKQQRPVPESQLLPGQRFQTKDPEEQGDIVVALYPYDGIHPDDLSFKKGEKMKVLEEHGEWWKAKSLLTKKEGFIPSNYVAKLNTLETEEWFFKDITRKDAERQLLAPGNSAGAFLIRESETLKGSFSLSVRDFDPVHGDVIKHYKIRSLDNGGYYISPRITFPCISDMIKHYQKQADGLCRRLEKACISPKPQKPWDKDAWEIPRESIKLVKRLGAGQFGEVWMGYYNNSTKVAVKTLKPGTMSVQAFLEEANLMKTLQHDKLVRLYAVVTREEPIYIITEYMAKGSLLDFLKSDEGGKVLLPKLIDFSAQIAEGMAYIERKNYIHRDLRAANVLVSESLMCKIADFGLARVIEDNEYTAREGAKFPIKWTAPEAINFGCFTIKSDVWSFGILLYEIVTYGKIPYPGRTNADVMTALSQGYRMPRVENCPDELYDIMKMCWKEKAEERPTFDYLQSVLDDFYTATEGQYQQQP
# UniProt Q16774, sequence (whole entry, unmodified, looked up): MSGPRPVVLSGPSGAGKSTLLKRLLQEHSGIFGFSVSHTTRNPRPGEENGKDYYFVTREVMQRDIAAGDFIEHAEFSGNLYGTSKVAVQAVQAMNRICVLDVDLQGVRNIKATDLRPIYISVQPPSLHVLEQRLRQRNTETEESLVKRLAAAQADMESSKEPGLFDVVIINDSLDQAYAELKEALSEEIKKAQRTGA
# UniProt P61823, sequence (whole entry, looked up): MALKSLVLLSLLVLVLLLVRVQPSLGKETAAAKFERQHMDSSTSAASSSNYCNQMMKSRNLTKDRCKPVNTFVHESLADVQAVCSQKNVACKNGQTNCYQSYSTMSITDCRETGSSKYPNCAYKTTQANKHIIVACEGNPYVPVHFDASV
Structure (SMILES),target,assay,system,conditions,endpoint,value
NCCS(=O)(=O)O,"uncharacterized protein (Pelagibacter ubique, UniProt Q4FMG4)",isothermal titration calorimetry,Candidatus Pelagibacter ubique,one-set-of-sites model,Kd,62 ± 12 nM
CCCN1CCN(c2ccc(-c3cncc(Cl)c3N3CCC4(CCNC4=O)CC3)cc2)CC1,GSK3B,SILAC displacement,LS174T-L5 cell lysate,,Kd,1590 nM
NCCS(=O)(=O)O,"SLC6A6 (Homo sapiens, UniProt P31641, S402A)",microscale thermophoresis,,S402A mutant,Kd,no binding
O=C(CCCCCCC(=O)Nc1ccc([C@H]2O[C@@H](CSc3nc(-c4ccccc4)c(-c4ccccc4)o3)C[C@@H](c3ccc(CO)cc3)O2)cc1)NO,ALDH2,"inhibitor, competition pulldown",SW620 and MV4-11 lysate,1 h,Kd,> 30200 nM
Cc1ccc(S(=O)(=O)OC[C@H]2CO[C@](Cn3ccnc3)(c3ccc(Cl)cc3Cl)O2)cc1,7-alpha-hydroxycholest-4-en-3-one 12-alpha-hydroxylase,binding,,"20 min, pH 7.4",Kd,777 nM
Nc1ccccc1NC(=O)c1ccc(CNc2nccc(-c3cccnc3)n2)cc1,ALDH2,"inhibitor, competition pulldown",SW620 and MV4-11 lysate,1 h,Kd,> 30200 nM
O=S1(=O)CC(S(=O)(=O)Nc2ccccc2-c2cccs2)c2ccccc21 (centres unmarked),Histone acetyltransferase RTT109 with Vps75,"enzyme activity, inhibitor, HTS, CPM-based, dose response",,,IC50,> 125000 nM
CO[C@@H]1O[C@@H](C)[C@@H](O)[C@@H](O)[C@@H]1O,"fleA (Aspergillus fumigatus, UniProt Q4WW81)",isothermal titration calorimetry,,,Kd,40300 nM
O=S1(=O)C=C(Sc2ccc(Cl)cc2)c2ccccc21,Histone acetyltransferase RTT109 with Vps75,"enzyme activity, inhibitor, HTS, CPM-based, dose response",,,IC50,> 125000 nM
Nc1ccn([C@@H]2O[C@H](COP(=O)(O)OP(=O)(O)O)[C@@H](O)[C@H]2O)c(=O)n1,"RNASE1 (Bos taurus, UniProt P61823)","binding, native mass spectrometry",solution,"single-point method, with: protein 0 to 0.5 µM",Kd,4100 ± 100 nM
Cc1cc2nc3c(=O)[nH]c(=O)nc-3n(C[C@H](O)[C@H](O)[C@H](O)COP(=O)(O)OP(=O)(O)OC[C@H]3O[C@@H](n4cnc5c(N)ncnc54)[C@H](O)[C@@H]3O)c2cc1C,"Fibulin-2 (FBLN2, Homo sapiens, UniProt P98095)","binding, MS pulldown competition",SW-620 cell lysate,,Kd,66100 nM
Nc1ncnc2c1ncn2[C@@H]1O[C@H](CO[P@](=O)(O)O[P@](=O)(O)O[P@@](=O)(O)S)[C@@H](O)[C@H]1O,"GUK1 (Homo sapiens, UniProt Q16774, R137A)","binding, ITC",,"25 °C, with: GMP",Kd,> 400000 nM
CCN(CC)Cc1ccc2cc(COC(=O)Nc3ccc(C(=O)NO)cc3)ccc2c1,ALDH2,"inhibitor, competition pulldown",SW620 and MV4-11 lysate,1 h,Kd,> 30200 nM
Cc1cnc(-c2ccc(-c3ccc(NC(=O)Nc4c(F)cc(F)cc4F)cc3F)c3c2C(=O)NC3)[nH]1,"LYN (Homo sapiens, UniProt P07948)","binding, KINOMEscan competition binding",,,Kd,24 nM
O=C(OCC1COC(Cn2ccnc2)(c2ccc(Cl)cc2Cl)O1)c1ccccc1 (centres unmarked),7-alpha-hydroxycholest-4-en-3-one 12-alpha-hydroxylase,binding,,"20 min, pH 7.4",Kd,2600 nM
O=C(CCCCCCNC(=O)c1cnc(N(c2ccccc2)c2ccccc2)nc1)NO,ALDH2,"inhibitor, competition pulldown",SW620 and MV4-11 lysate,1 h,Kd,531 nM
CCOC(=O)c1c(NC(=O)CNC(C)C)sc2c1CCCCC2,GSK3B,,,,Kd,~1230 nM

# Repeated from above:
Structure (SMILES),target,assay,system,conditions,endpoint,value
O=C(CCCCCCC(=O)Nc1ccc([C@H]2O[C@@H](CSc3nc(-c4ccccc4)c(-c4ccccc4)o3)C[C@@H](c3ccc(CO)cc3)O2)cc1)NO,ALDH2,"inhibitor, competition pulldown",SW620 and MV4-11 lysate,1 h,Kd,> 30200 nM
Cc1ccc(S(=O)(=O)OC[C@H]2CO[C@](Cn3ccnc3)(c3ccc(Cl)cc3Cl)O2)cc1,7-alpha-hydroxycholest-4-en-3-one 12-alpha-hydroxylase,binding,,"20 min, pH 7.4",Kd,777 nM
